Measurements gathered from unrelated publications.
Each numbered part is a random draw from the data of one study; scales do not carry over between parts. “And” joins repeats or separate records; there may be more than shown. Substitutions count along the parent as printed.

Block 1 — observed: enzyme activity; action: inhibitor; concentration: 0.5 µM; relative to: control; measurement: remaining activity
Target: Serine/threonine-protein kinase PAK 3 (PAK3, Homo sapiens, UniProt O75914)
Sequence of UniProt O75914 (whole entry, looked up): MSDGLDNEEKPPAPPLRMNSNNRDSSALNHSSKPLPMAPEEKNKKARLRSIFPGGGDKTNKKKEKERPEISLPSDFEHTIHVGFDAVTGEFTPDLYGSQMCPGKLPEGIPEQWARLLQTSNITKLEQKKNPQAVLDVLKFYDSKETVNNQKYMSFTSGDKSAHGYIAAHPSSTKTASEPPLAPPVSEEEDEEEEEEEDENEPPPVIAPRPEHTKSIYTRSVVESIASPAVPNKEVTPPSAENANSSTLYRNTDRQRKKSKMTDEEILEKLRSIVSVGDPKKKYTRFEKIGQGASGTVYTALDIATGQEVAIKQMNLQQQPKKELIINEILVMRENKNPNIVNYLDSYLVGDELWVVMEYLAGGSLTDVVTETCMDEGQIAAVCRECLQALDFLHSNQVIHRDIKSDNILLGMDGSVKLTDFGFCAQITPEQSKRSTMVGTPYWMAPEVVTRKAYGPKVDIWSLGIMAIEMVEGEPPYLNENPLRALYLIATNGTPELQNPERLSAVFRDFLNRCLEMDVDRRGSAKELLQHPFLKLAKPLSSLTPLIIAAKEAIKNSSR
Cc1nc(-c2ccccc2)c(-c2ccncc2)o1: 100%
O=S(=O)(c1cccc2cnccc12)N1CCCNCC1: 103%
COc1cc2nccc(Oc3ccc(NC(=S)NC(=O)c4ccccc4C)cc3)c2cc1OC: 99.7%
COc1ccc(C(=O)Nc2sc3c(c2C(N)=O)CCCC3)cc1OC: 96.2%
CO[C@H]1C[C@@H]2CC[C@@H](C)[C@@](O)(O2)C(=O)C(=O)N2CCCC[C@H]2C(=O)O[C@H]([C@H](C)C[C@@H]2CC[C@@H](O)[C@H](OC)C2)CC(=O)[C@H](C)/C=C(\C)[C@@H](O)[C@@H](OC)C(=O)[C@H](C)C[C@H](C)/C=C/C=C/C=C/1C: 102%
O=c1c2ccccc2[nH]c(=S)n1CCN1CCC(=C(c2ccc(F)cc2)c2ccc(F)cc2)CC1: 94.6%
Cc1ccc(NC(=O)c2ccc(CN3CCN(C)CC3)cc2)cc1Nc1nc(-c2cccnc2)cs1: 106%
Oc1ccc(-c2nc(-c3ccncc3)c(-c3ccc(F)cc3)[nH]2)cc1: 98.7%
Cn1c2ccccc2c2c3c(c4c5ccccc5n(CCC#N)c4c21)CNC3=O: 122%
O=C1NC(=O)C(c2cn(CCCO)c3ncccc23)=C1c1cnccn1: 92.8%
COc1ccc(OC)c2c(=S)c3ccccc3[nH]c12: 98%
Cn1sc(=O)n(Cc2ccccc2)c1=O: 100%
CC(C)[C@H](CO)Nc1nc(Nc2cc(N)cc(Cl)c2)c2ncn(C(C)C)c2n1: 101%

Block 2 — target: CCNE1, cyclin fold, Cln2 fusion (human); method: yeast growth competition, sequencing; medium: yeast; setting: weak parent motif; relative to: not given; reading: higher = stronger binding; measurement: normalised enrichment score
Starting sequence: MASTL docking peptide (human); PMIAKNLMCELDE
M2G: 0.306
L7K: 0.25
A4I: 0.182
E10S: -0.0283
N6T: 0.217
M8F: 0.0267
L11Y: -0.0269
L7S: -0.0607

Block 3 — target: FOSL1, bZIP domain (human); method: DHFR protein complementation; medium: yeast; relative to: wild-type JUN-FOS pair; reading: higher = stronger binding; measurement: binding fitness
Setting: single substitutions, most at no-binding floor
Starting sequence: JUN, bZIP domain (human); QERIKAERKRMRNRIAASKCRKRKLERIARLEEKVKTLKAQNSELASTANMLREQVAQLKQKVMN; partner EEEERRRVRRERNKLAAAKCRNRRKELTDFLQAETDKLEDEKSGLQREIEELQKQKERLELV
A40K: -0.287 natural log
E33N: -0.61 natural log
S47H: -0.33 natural log
A49D: -1.3 natural log
T37S: -0.406 natural log
Q41E: -0.303 natural log
R53V: -1.26 natural log
L38P: -1.44 natural log

Block 4 — method: CellTiter-Glo; concentration: 1 µM; relative to: DMSO; measurement: viability
Cell line: normal-adjacent epithelium patient-derived organoids sample E
COc1cc(Nc2ncc3c(n2)-c2ccc(Cl)cc2C(c2c(F)cccc2OC)=NC3)ccc1C(=O)O: 33.7%
COCc1nc2cnc3cc(-c4c(C)noc4C)c(OC[C@H]4CCNC4)cc3c2n1[C@H](C)c1ccccc1: 80.3%
CCC(=N\O)/C(C)=C/c1ccc(F)cc1: 114% and 97.2%
Cc1ncc(-c2cc(Cl)ccc2F)cc1-n1c(=O)n(CC(N)=O)c2ccccc21: 98.9% and 98.8%
COc1cc(Nc2nccc(-c3cnn4nc(OC)ccc34)n2)cc(C(F)(F)F)c1: 41.2%
CCNC(=O)c1cc2c(N3CCOC[C@H]3C)ccnc2n1C: 120% and 106%
Cl.Cl.NC1(c2ccc(-c3nc4ccn5c(=O)[nH]nc5c4cc3-c3ccccc3)cc2)CCC1: 96.9% and 93.4%
Cc1cc2c(-c3ccco3)cnc(N[C@@H]3CCN(C)C[C@H]3C(=O)NC3CCCCC3)c2[nH]c1=O: 71.3%

Repeated from above (block 4):
Cc1ncc(-c2cc(Cl)ccc2F)cc1-n1c(=O)n(CC(N)=O)c2ccccc21: 98.9% and 98.8%
COc1cc(Nc2nccc(-c3cnn4nc(OC)ccc34)n2)cc(C(F)(F)F)c1: 41.2%
CCNC(=O)c1cc2c(N3CCOC[C@H]3C)ccnc2n1C: 120% and 106%
Cl.Cl.NC1(c2ccc(-c3nc4ccn5c(=O)[nH]nc5c4cc3-c3ccccc3)cc2)CCC1: 96.9% and 93.4%
Cc1cc2c(-c3ccco3)cnc(N[C@@H]3CCN(C)C[C@H]3C(=O)NC3CCCCC3)c2[nH]c1=O: 71.3%
